# Measurements of several laboratories.
# Every numbered part comes from another study and shows a few of its results, in no order.

# Block 1
# Cell line: HEK-293T
# Effect on: pseudovirus infection
# Method: FDA-approved drug library screen
# Organism: VSV pseudotyped with SARS-CoV-2 spike
# Tested at: 10 µM
# Time: 16 h
# Relative to: vehicle-treated
SMILES,GFP-positive cells
CC[C@H](C)C(=O)O[C@H]1C[C@@H](C)C=C2C=C[C@H](C)[C@H](CC[C@@H]3C[C@@H](O)CC(=O)O3)[C@H]21,78.5%
C[C@]12CC[C@@H]3c4ccc(OS(=O)(=O)O)cc4CC[C@H]3[C@@H]1CCC2=O,104%
CC(NCCc1ccc(O)cc1)C(O)c1ccc(O)cc1 (centres unmarked),90.9%

# Block 2
# Target: Interferon regulatory factor 5, full length, phosphomimetic (IRF5, Homo sapiens, UniProt Q13568-2, residues 1-514, K96S/S451D/S453D/S456D/S462D)
# Method: protein-binding microarray
# Molecule type: double-stranded DNA, one strand shown
# Matrix: in vitro
# Tested at: 250 nM
# Setting: 60-bp whole probe
# Added: salmon DNA 0.4 mg/ml
# Relative to: random background probes
# Direction: higher = stronger binding
# Constant ends, left off below: GCCTAGCAC … GTCTTGATTCGCTTGACGCTGCTG
Oligonucleotide,log fluorescence [z-score]
TTAGATTTCAGTCTCGAGTAGTGCTAG,2.1
GACGAACTGGGGACTGTAGACGTGCTA,-0.566
TCAAACTTCGGCCTCTAACTGTGCTAG,0.22
TTAGAACTGGGGATTCGATTAGTGCTA,-0.0555
TTAGGTATCGGTCTCGGTCAGTGCTAG,7.27
TCAATGCTGGCTTTTATACTGTGCTAG,-0.333
AACGGACTGGGTTTCGGGACGTGCTAG,2.35
GACGGTTTCCTTTTCCGGACGTGCTAG,1.36

# Block 3
# Target: Replicase polyprotein 1ab, polymerase (rep, Severe acute respiratory syndrome coronavirus 2, UniProt P0DTD1)
# Effect on: enzyme activity
# Mode: inhibitor
# Tested at: 20 µM
SMILES,inhibition [%]
Nc1ncnc2c1ncn2[C@@H]1O[C@H](CO)[C@@H](O)[C@@H]1O,1.05
Cc1nc(-c2ccc(OCC(C)C)c(C#N)c2)sc1C(=O)O,6.46
CO[C@H]1C[C@@H]2CC[C@@H](C)[C@@](O)(O2)C(=O)C(=O)N2CCCC[C@H]2C(=O)O[C@H]([C@H](C)C[C@@H]2CC[C@H](n3cnnn3)[C@H](OC)C2)CC(=O)[C@H](C)/C=C(\C)[C@@H](O)[C@@H](OC)C(=O)[C@H](C)C[C@H](C)/C=C/C=C/C=C/1C,33.3
O=C(O)c1ccc(OCCn2ccnc2)cc1,-1.95
CCCCOc1nc(N)c2c(n1)N(Cc1cccc(CN3CCCC3)c1)CC(=O)N2,-2.7
CNC(=O)O[C@H]1COc2ccc(N3CCN(C4COC4)CC3)cc2[C@@H]1NC(=O)c1ccc(F)cc1,2.09
O=C1c2ccccc2C(=O)C1c1ccc(Cl)cc1,-3.12
CCc1cn([C@H]2C[C@H](O)[C@@H](CO)O2)c(=O)[nH]c1=O,-1.39
CCNC1(C(N)=O)CCN(c2ncnc3c2nc(-c2ccccc2Cl)n3-c2ccc(Cl)cc2)CC1,0.63
COc1ccc(NS(=O)(=O)c2ccc(/N=N/c3ccc(O)c(C(=O)O)c3)cc2)nn1,14.3
O=C1Cc2cc(CCN3CCN(c4nsc5ccccc45)CC3)c(Cl)cc2N1,12.1
Cn1cncc1[C@@](N)(c1ccc(Cl)cc1)c1ccc2c(c1)c(-c1cccc(Cl)c1)cc(=O)n2C,1.84
O=C(Oc1ccc(Br)cc1)N1CCN2CCC1CC2,2.16
O=C(O)CC[C@H]1CC[C@@](c2cc(F)ccc2F)(S(=O)(=O)c2ccc(Cl)cc2)CC1,-1.27
Cc1cnc(-c2ccccc2C(C)C)nc1NCc1ccc(-n2ccnn2)cc1,0.58
Cc1c2oc3c(C)ccc(C(=O)N[C@@H]4C(=O)N[C@H](C(C)C)C(=O)N5CCC[C@H]5C(=O)N(C)CC(=O)N(C)[C@@H](C(C)C)C(=O)O[C@@H]4C)c3nc-2c(C(=O)N[C@@H]2C(=O)N[C@H](C(C)C)C(=O)N3CCC[C@H]3C(=O)N(C)CC(=O)N(C)[C@@H](C(C)C)C(=O)O[C@@H]2C)c(N)c1=O,10.8
O=C(O)CN(CCN(CC(=O)O)CC(=O)O)CCN(CC(=O)O)CC(=O)O,-3.71
C[C@@H]1[C@H](O)[C@@H](C)/C=C/C=C/C=C/C=C/C=C/C=C/C=C/[C@H](O[C@@H]2O[C@H](C)[C@@H](O)[C@H](N)[C@@H]2O)C[C@@H]2O[C@](O)(C[C@@H](O)C[C@@H](O)[C@H](O)CC[C@@H](O)C[C@@H](O)CC(=O)O[C@H]1C)C[C@H](O)[C@H]2C(=O)O,4.44
COc1cc(CCc2cc(NC(=O)c3ccc(N4C[C@@H](C)N[C@@H](C)C4)cc3)n[nH]2)cc(OC)c1,-2.92
Cc1nc(N)sc1-c1ccnc(Nc2ccc(N3CCOCC3)cc2)n1,-8.64
COc1cc2nc(N3CCN(C(=O)C(C)OC)CC3)nc(N)c2cc1OC (centres unmarked),4.05
Cc1cc(C)cc(C(=O)N(C)[C@H](Cc2ccc(-c3ccccc3)cc2)C(=O)N[C@@H](Cc2c[nH]c3ccccc23)C(=O)O)c1,3.57
Oc1ccc2c3c1O[C@H]1c4c(c5ccccc5n4Cc4ccccc4)C[C@@]4(O)[C@@H](C2)N(CC2CC2)CC[C@]314,-4.65
NC(=O)c1cnccn1,1.51
Cc1cc(CC(=O)O)n(C)c1C(=O)c1ccc(Cl)cc1,-2.08

# Block 4
# Target: POU domain, class 5, transcription factor 1, POU domain (Pou5f1, Mus musculus, UniProt P20263, residues 131-289)
# Sequence of UniProt P20263 (131-289, looked up): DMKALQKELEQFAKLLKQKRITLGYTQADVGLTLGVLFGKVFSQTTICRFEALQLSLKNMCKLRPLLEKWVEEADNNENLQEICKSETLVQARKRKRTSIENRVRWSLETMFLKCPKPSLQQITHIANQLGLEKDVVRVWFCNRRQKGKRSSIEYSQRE
# Method: Spec-seq
# Molecule type: double-stranded DNA, one strand shown
# Matrix: in vitro
# Tested at: not given
# Setting: whole probe, mean of replicates
# Relative to: not given
# Direction: lower = stronger binding
# Constant ends, left off below: GAGTCGTCTCGTCAGCAC … CCGTAGAGCACTCAGGTC
Oligonucleotide,relative binding energy [ln ratio]
ATGCGGTA,0.606
ATGCTGTA,0.611
CAGTTAAT,0.733
ATGTTAAT,-2.31
ATGCCAGA,0.397
ACACTAAT,0.442
ATGCTCGC,0.856

# Block 5
# Target: TAR DNA-binding protein 43, full length, His tag (TARDBP, Homo sapiens, UniProt Q13148, residues 1-414)
# Method: RNA Bind-n-Seq
# Molecule type: RNA
# Matrix: in vitro
# Tested at: 20 nM
# Setting: 6-mer, flanks averaged, single round
# Added: 150 mM KCl
# Relative to: input library
# Direction: higher = stronger binding
Oligonucleotide,6-mer enrichment (R)
CAUAAA,0.628
CUAGCC,0.641
CUACAU,0.564
UCCUUU,0.607
GACUGC,0.894
CGACAA,0.661
UCAUUC,0.523
GGCCCU,0.888

# Mixed results
# Effect on: enzyme activity
# Mode: inhibitor
Compound,target,system,IC50 [µM]
Sc1nnc(-c2ccccc2Cl)o1,"Replicase polyprotein 1ab, main protease (rep, Severe acute respiratory syndrome coronavirus 2, UniProt P0DTD1)",,7.71
[O-][S+](c1ccccc1)c1ccc2nnnn2n1 (centres unmarked),"Replicase polyprotein 1ab, 3C-like proteinase (rep, Middle East respiratory syndrome-related coronavirus, UniProt K9N7C7)",MERS-CoV,10.1

# Excerpt of the above (mixed results):
Compound,target,system,IC50 [µM]
Sc1nnc(-c2ccccc2Cl)o1,"Replicase polyprotein 1ab, main protease (rep, Severe acute respiratory syndrome coronavirus 2, UniProt P0DTD1)",,7.71
[O-][S+](c1ccccc1)c1ccc2nnnn2n1 (centres unmarked),"Replicase polyprotein 1ab, 3C-like proteinase (rep, Middle East respiratory syndrome-related coronavirus, UniProt K9N7C7)",MERS-CoV,10.1
